Experimental data pooled from the literature.
Each numbered part is a random draw from the data of one study; scales do not carry over between parts.

Study 1 — method: aptamer microarray, sandwich; molecule type: DNA with 2'F-ANA; sample: in vitro; concentration: 200 nM; with: Cy3 exosite-II aptamer, 400 nM; direction: higher = stronger binding; endpoint: mean fluorescence intensity; strand: GGTTGGTGTGGTTGG
Target: Prothrombin, mature alpha-thrombin (F2, Homo sapiens, UniProt P00734)
Setting: whole 15-mer aptamer, many near background
2'F-ANA at 2 5 8 9 13 14: 45.6 a.u.
2'F-ANA at 2 3 5 6 7 12 13: 132 a.u.
2'F-ANA at 11 14: 226 a.u.
2'F-ANA at 1 2 5 7 8 10 11 12 15: 55.6 a.u.
2'F-ANA at 1 3 4 6 10 11 12: 109 a.u.
2'F-ANA at 10 12 14 15: 92.5 a.u.
2'F-ANA at 2 3 5 7 8 9 14: 58.3 a.u.

Study 2 — method: universal PBM; molecule type: double-stranded DNA, one strand shown; sample: in vitro; concentration: not given; direction: higher = stronger binding; endpoint: E-score
Target: Sal-like protein 4, full length isoform B (SALL4, Homo sapiens, UniProt Q9UJQ4-2, residues 1-616)
Setting: 8-mer, flanks averaged, mean of replicates
CGCCAGCC: -0.216
GCTGATAC: -0.063
CAGTCCTC: -0.131
ACTTGGAG: -0.0701
CTGGGTTA: -0.131
AGATTACA: 0.19
GTAGTGAA: 0.0902

Study 3 — method: protein binding microarray; molecule type: double-stranded DNA, one strand shown; sample: in vitro; concentration: not given; reference: not given; direction: higher = stronger binding; endpoint: E-score
Target: Histone acetyltransferase KAT6A, both winged helices, GST fusion (KAT6A, Homo sapiens, UniProt Q92794, residues 1-181)
Setting: 8-mer, flanks averaged, mean of 2 arrays, mostly near background
Target sequence (chain): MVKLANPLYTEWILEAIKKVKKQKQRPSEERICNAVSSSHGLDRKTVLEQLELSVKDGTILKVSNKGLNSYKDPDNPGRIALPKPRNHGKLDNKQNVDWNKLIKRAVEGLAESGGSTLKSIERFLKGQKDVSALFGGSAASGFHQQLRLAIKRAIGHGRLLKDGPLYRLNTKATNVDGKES
ATTTCTTG: -0.0332
GAGGGAGA: -0.301
AGTGTAGA: -0.252
GAAGCGTC: 0.125
GACCGAGA: 0.146
CAGGTAGA: -0.183
AATCTAAC: -0.0235
GCCCTCCC: -0.0274
AATAGAAT: -0.196

Other studies, line by line
PhoQ, residues 284 288 289 292 302 303 AGGLSV — fold induction (PhoP, residues 12 14 15 18 19 VHSCL (Escherichia coli, UniProt P23836); Sort-seq, measured: YFP reporter; E. coli; PhoQ-PhoP variant library, with: 10 µM Mg2+; reference: high Mg2+ state, higher = stronger signaling): 1.49

For quick reference, copied from above (study 1):
2'F-ANA at 2 3 5 6 7 12 13: 132 a.u.
2'F-ANA at 11 14: 226 a.u.
2'F-ANA at 1 2 5 7 8 10 11 12 15: 55.6 a.u.
2'F-ANA at 1 3 4 6 10 11 12: 109 a.u.
